Measurements gathered from unrelated publications.
Numbered parts are unrelated; each lists some results of a single study. Positions count from the first letter of the parent shown.

Series 1
Target: CCNA2, cyclin fold, Cln2 fusion (human)
Technique: yeast growth competition, sequencing
Matrix: yeast
Setting: strong parent motif
Relative to: not given
Reading: higher = stronger binding
Starting sequence: viral docking peptide; KGVKRKLFAEDSS; partner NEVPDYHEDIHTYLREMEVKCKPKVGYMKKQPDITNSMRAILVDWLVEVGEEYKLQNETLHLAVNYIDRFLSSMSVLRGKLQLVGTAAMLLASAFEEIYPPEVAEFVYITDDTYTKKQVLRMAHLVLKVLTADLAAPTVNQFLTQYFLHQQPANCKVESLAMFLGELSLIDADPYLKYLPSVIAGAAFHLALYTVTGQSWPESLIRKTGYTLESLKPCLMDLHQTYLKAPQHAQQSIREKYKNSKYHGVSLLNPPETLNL
| Change | normalised enrichment score |
| --- | --- |
| D11M | 5.77 |
| K4T | 3.75 |
| S12G | 5.99 |
| S12Q | 5.75 |
| G2R | 6.39 |
| K6F | 1.5 |
| D11S | 6.34 |
| F8L | 1.72 |
| V3N | 0.668 |
| K4I | 5.41 |
| L7D | 0.271 |
| K6W | 1.07 |
| A9F | 6.31 |
| E10H | 5.38 |
| K4E | 1.84 |
| S12H | 5.76 |
| R5T | 2.4 |

Series 2
Target: CRIPT, C-terminal peptide
Technique: DHFR complementation, deep sequencing
Matrix: yeast
Setting: single substitutions, model-inferred values
Relative to: wild type
Reading: higher = weaker binding
Starting sequence: ERBIN, PDZ domain 1 (human); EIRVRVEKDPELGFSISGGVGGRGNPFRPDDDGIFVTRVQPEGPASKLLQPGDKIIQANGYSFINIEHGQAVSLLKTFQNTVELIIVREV; partner TKNYKQTSV
| Change | binding free energy change [kcal/mol] |
| --- | --- |
| R28H | -0.0364 |
| V82T | 0.173 |
| G22F | 0.597 |
| T37D | 1.15 |
| I64E | -0.0115 |
| N25H | 0.957 |
| I64Q | -0.0274 |
| A58Y | 1.21 |

Series 3
Target: Prothrombin, mature alpha-thrombin (F2, Homo sapiens, UniProt P00734)
Technique: aptamer microarray, sandwich
Molecule type: DNA with 2'F-ANA
Matrix: in vitro
Concentration: 200 nM
Setting: whole 15-mer aptamer, many near background
Together with: Cy3 exosite-II aptamer, 400 nM
Reading: higher = stronger binding
Oligonucleotide: GGTTGGTGTGGTTGG
| Modification | mean fluorescence intensity |
| --- | --- |
| 2'F-ANA at 4 8 9 10 13 14 15 | 67.2 a.u. |
| 2'F-ANA at 5 6 7 8 10 11 13 | 44.5 a.u. |
| 2'F-ANA at 1 4 5 9 10 11 12 13 14 | 47.8 a.u. |
| 2'F-ANA at 2 4 6 7 8 | 409 a.u. |
| 2'F-ANA at 1 4 7 8 9 10 11 | 59.7 a.u. |
| 2'F-ANA at 1 2 3 4 7 8 9 11 14 15 | 60.8 a.u. |
| 2'F-ANA at 3 5 6 7 11 12 14 15 | 65 a.u. |
| 2'F-ANA at 2 4 7 9 12 | 648 a.u. |

Mixed results
| SMILES | organism | effect on | concentration | time | measurement | value |
| --- | --- | --- | --- | --- | --- | --- |
| COc1cc2c(cc1OC)[C@@]13CCN4CC5=CCO[C@H]6CC(=O)N2[C@H]1[C@H]6[C@H]5C[C@H]43 | Sarcocystis neurona | parasite activity | 10 µM | 96 h | activity class | inactive |

A few entries again (series 2):
| Change | binding free energy change [kcal/mol] |
| --- | --- |
| V82T | 0.173 |
| G22F | 0.597 |
| T37D | 1.15 |
